Measured values collected from several papers.
Protocols differ between the studies behind these lines. Several values in a cell are separate wells, animals, samples, runs or records. ± marks the error that the study gave.
rep methyltransferase: Replicase polyprotein 1ab, methyltransferase (rep, Severe acute respiratory syndrome coronavirus 2, UniProt P0DTD1)
rep main protease: Replicase polyprotein 1ab, main protease (rep, Severe acute respiratory syndrome coronavirus 2, UniProt P0DTD1)
rep papain-like protease: Replicase polyprotein 1ab, papain-like protease (rep, Severe acute respiratory syndrome coronavirus 2, UniProt P0DTD1)
rep nsp13 helicase: Replicase polyprotein 1ab, nsp13 helicase (rep, Severe acute respiratory syndrome coronavirus 2, UniProt P0DTD1)
rep nsp14: Replicase polyprotein 1ab, nsp14 (rep, Severe acute respiratory syndrome coronavirus 2, UniProt P0DTD1)
Spike glycoprotein: Spike glycoprotein (Severe acute respiratory syndrome coronavirus 2, UniProt P0DTC2)

With `CC[C@H](C)[C@H](NC(=O)[C@H](CC(C)C)NC(=O)[C@H](Cc1c[nH]c2ccccc12)NC(=O)[C@H](CCC(N)=O)NC(=O)[C@@H](NC(=O)[C@H](Cc1ccccc1)NC(=O)[C@H](C)NC(=O)[C@H](CCCCNC(=O)COCCOCCNC(=O)COCCOCCNC(=O)CC[C@H](NC(=O)CCCCCCCCCCCCCCCCCCC(=O)O)C(=O)O)NC(=O)[C@H](CCC(N)=O)NC(=O)[C@H](C)NC(=O)[C@@H](NC(=O)[C@H](CCCCN)NC(=O)[C@H](CC(=O)O)NC(=O)[C@H](CC(C)C)NC(=O)C(C)(C)NC(=O)[C@@H](NC(=O)[C@H](CO)NC(=O)[C@H](Cc1ccc(O)cc1)NC(=O)[C@H](CC(=O)O)NC(=O)[C@H](CO)NC(=O)[C@@H](NC(=O)[C@H](Cc1ccccc1)NC(=O)[C@@H](NC(=O)CNC(=O)[C@H](CCC(=O)O)NC(=O)C(C)(C)NC(=O)[C@@H](N)Cc1ccc(O)cc1)[C@@H](C)O)[C@@H](C)O)[C@@H](C)CC)[C@@H](C)CC)C(C)C)C(=O)N[C@@H](C)C(=O)NCC(=O)NCC(=O)N1CCC[C@H]1C(=O)N[C@@H](CO)C(=O)N[C@@H](CO)C(=O)NCC(=O)N[C@@H](C)C(=O)N1CCC[C@H]1C(=O)N1CCC[C@H]1C(=O)N1CCC[C@H]1C(=O)N[C@@H](CO)C(N)=O` the serum lipase was 18.5 ± 10.6 U/L (healthy subjects, single ascending dose; 2.5 mg, baseline).
With `Cl.Cl.Cl.Cl.Cl.Cl.N.N.N.N.N.N.N.N.N.N.N.N.N.N.[O-2].[O-2].[Ru+3].[Ru+3].[Ru+4]` the IC50 was 5.9 µM (rep methyltransferase; enzyme activity, inhibitor).
The IC50 of `Cc1nn(-c2ccc(Cl)cc2)c2c1C(c1ccc(Cl)cc1Cl)C(C#N)=C(N)O2` (centres unmarked) is reported as 84.3 µM (rep main protease; 3CL protease activity; 90 min).
The IC50 of `COc1ccc2c(c1)n(C(C)C)c[n+]2C(C)C.[Ag][I]` is reported as > 50 µM (rep main protease; enzyme activity, inhibitor).
The IC50 of `CCC(C(=O)Nc1cc(NC2COC2)ccc1C)n1cccc2nc(SCc3ccc(F)cc3)nc1-2` (centres unmarked) is reported as 0.342 µM (rep papain-like protease; enzyme activity, inhibitor).
`CN1CCCC(n2nc(Cc3ccc(Cl)cc3)c3ccccc3c2=O)CC1` (centres unmarked) gave an IC50 of 20 to 100 µM (rep main protease; enzyme activity, inhibitor, FRET).
The IC50 of `CCn1ccc(-c2cc(-c3cnn(C)c3)cc([C@@H](C)NC(=O)c3ccccc3CCC(=O)NCC(=O)CF)c2)n1` is reported as > 10 µM (rep papain-like protease; enzyme activity, inhibitor).
With `Cc1ccc(C)n1-c1sc2c(c1C(=O)O)CCCC2` the IC50 was > 150 µM (rep nsp13 helicase; helicase ATPase activity, inhibitor, Kinase-Glo luminescence).
The IC50 of `CC1CC(c2ccc(C(=O)O)cc2)=NN1c1ccc(C#N)c(Cl)c1` (centres unmarked) is reported as 5.01 µM (rep methyltransferase; enzyme activity, inhibitor).
`Cc1cc(C(=O)NC2CCCc3c2[nH]c2ccccc32)c2c(C)noc2n1` (centres unmarked) gave an IC50 of > 250 µM (rep methyltransferase; enzyme activity, inhibitor).
With `O=C(Nc1ccc2oc(=O)ccc2c1)c1ccc(-c2cccc([N+](=O)[O-])c2)o1` the IC50 was > 150 µM (rep nsp13 helicase; helicase ATPase activity, inhibitor, Kinase-Glo luminescence).
For `O=C1c2c(O)ccc(O)c2C(=O)c2c(NCCNCCO)ccc(NCCNCCO)c21`, the IC50 was < 10 µM and 4.9 µM (rep methyltransferase; enzyme activity, inhibitor; pH 7.5).
With `O=C1NC(=O)C(=Cc2ccc(-c3cc([N+](=O)[O-])ccc3O)o2)C(=O)N1` the IC50 was 10 µM (rep nsp13 helicase; helicase ATPase activity, inhibitor, Kinase-Glo luminescence; 60 min, with: 2.5 µM ATP).
`Nc1ncnc2c([C@@H]3N[C@H](CO)[C@@H](O)[C@H]3O)c[nH]c12` has an inhibition of 93% (Marburg marburgvirus; virus production; HeLa, Musoke; 6.3 µM).
`C/C1=C2/[N-][C@H]([C@H](CC(N)=O)[C@@]2(C)CCC(=O)NC[C@@H](C)OP(=O)([O-])O[C@H]2[C@@H](O)[C@@H](n3cnc4cc(C)c(C)cc43)O[C@@H]2CO)[C@]2(C)N=C(/C(C)=C3N=C(/C=C4N=C1[C@@H](CCC(N)=O)C\4(C)C)[C@@H](CCC(N)=O)[C@]\3(C)CC(N)=O)[C@@H](CCC(N)=O)[C@]2(C)CC(N)=O.[Co+3].[OH-]` has an IC50 of 3.29 µM (rep main protease; 3CL protease activity, inhibitor).
For `CC(C)n1c[n+](C(C)C)c2ccccc21.[Cl][Ag]`, the IC50 was > 50 µM (rep main protease; enzyme activity, inhibitor).
For `CC(COc1ccccc1)N(CCCl)Cc1ccccc1` (centres unmarked), the IC50 was 58.2 to 91 µM (rep nsp14; methyltransferase activity, inhibitor, RapidFire MS, item: SAH).
For `CC1CC(c2cccc(C(=O)O)c2)=NN1c1ccc(C#N)c(Cl)c1` (centres unmarked), the IC50 was 3.45 µM (rep methyltransferase; enzyme activity, inhibitor).
The IC50 of `Cc1ccc(/N=C/c2cc(Cc3ccccc3Cl)cc([N+](=O)[O-])c2O)c(O)c1` is reported as 45 µM (rep nsp13 helicase; helicase ATPase activity, inhibitor, Kinase-Glo luminescence).
`C[C@@H]1O[C@@H](O[C@H]2[C@H](O[C@H]3CC[C@@]4(C)[C@@H](CC[C@]5(C)[C@@H]4CC=C4[C@@H]6CC(C)(C)CC[C@]6(C(=O)O[C@@H]6O[C@H](CO[C@@H]7O[C@H](CO)[C@@H](O[C@@H]8O[C@@H](C)[C@H](O)[C@@H](O)[C@H]8O)[C@H](O)[C@H]7O)[C@@H](O)[C@H](O)[C@H]6O)CC[C@]45C)[C@]3(C)CO)OC[C@H](O)[C@@H]2O)[C@H](O)[C@H](O)[C@H]1O` has a Kd of 54.5 µM (Spike glycoprotein; binding, biolayer interferometry).
The survival of `CNC(=O)[C@@H](NC(=O)[C@H](CC(C)C)[C@H](O)C(=O)NO)C(C)(C)C` is reported as 0% (TN population, mouse; intravenous, 60 µg/mouse, 24 h, preincubated with venom, with: Daboia russelii venom 2.5 x LD50).
With `CCCCCOc1ccc(C2C(C(=O)c3ccc(C)o3)=C(O)C(=O)N2c2cc(C)on2)cc1` (centres unmarked) the IC50 was 5 µM (rep nsp13 helicase; helicase ATPase activity, inhibitor, Kinase-Glo luminescence; 60 min, with: 2.5 µM ATP).
`CCCC(C(=O)Nc1cc(NC2CCNCC2)ccc1C)n1cccc2nc(SCc3ccc(F)cc3)nc1-2` (centres unmarked) gave an IC50 of 1.74 µM (rep papain-like protease; enzyme activity, inhibitor).
`O=C(O)c1ccc(-n2cccc2/C=C2/NC(=O)N(c3cccc(Cl)c3)C2=O)cc1` gave an IC50 of 3 µM (rep nsp13 helicase; helicase ATPase activity, inhibitor, Kinase-Glo luminescence; 60 min, with: 2.5 µM ATP).
For `CNC(=O)c1ccc(C2=NN(c3ccc(C#N)c(Cl)c3)C(C)C2)cc1` (centres unmarked), the IC50 was > 100 µM (rep methyltransferase; enzyme activity, inhibitor).
The IC50 of `O=C(Nc1ccccc1-c1cn2c(CN3CCNCC3)csc2n1)c1cnc2ccccc2n1` is reported as > 128 µM (rep main protease; enzyme activity, inhibitor).
`Cn1cnc(Cn2c(=O)[nH]/c(=N\c3cc4cn(C)nc4cc3Cl)n(Cc3cc(F)c(F)cc3F)c2=O)n1` — result for “dry mouth TEAE, Mild severity”: 0% (human, normal renal function; oral, 375 mg).
The IC50 of `O=c1cc(-c2ccc(O)cc2)oc2cc(O[C@@H]3O[C@H](CO)[C@@H](O)[C@H](O)[C@H]3O)cc(O)c12` is reported as 14.3 ± 0.61 µM (rep main protease; enzyme activity, inhibitor; with: fluorogenic substrate).
With `O=C1c2c(O)cccc2C([C@@H]2O[C@H](CO)[C@@H](O)[C@H](O)[C@H]2O)c2cc(CO)cc(O)c21` (some centres unmarked) the Kd was 50.9 µM (Spike glycoprotein; binding, BLI).
For `CCC(C(=O)Nc1cc(NC2CCNCC2)ccc1C)n1cc(Br)cc2nc(SCc3ccc(F)cc3)nc1-2` (centres unmarked), the IC50 was 0.052 µM (rep papain-like protease; enzyme activity, inhibitor).
`Cc1c(S(=O)(=O)N2CCc3n[nH]cc3C2)cc(C(=O)NCc2c(F)cccc2N2CCCC2)n1C` gave an IC50 of 0.00039 µM (rep nsp14; inhibitor).
`Cc1cc(O)n2nc(-c3ccsc3-n3c(C)ccc3C)cc2n1` gave an IC50 of 57 µM (rep nsp13 helicase; helicase ATPase activity, inhibitor, Kinase-Glo luminescence).
`CCC(C(=O)Nc1ccccn1)n1cccc2nc(SCc3ccc(F)cc3)nc1-2` (centres unmarked) gave an IC50 of > 20 µM (rep papain-like protease; enzyme activity, inhibitor).
`N#Cc1sc2nc(-c3ccccc3)cc(-c3ccco3)c2c1N` gave an IC50 of > 100 µM (rep nsp13 helicase; helicase ATPase activity, inhibitor, Kinase-Glo luminescence).
With `CC(C)N(CCC(=O)c1ccc2ccccc2c1)Cc1ccccc1` the IC50 was < 10 µM and 6 µM (rep methyltransferase; enzyme activity, inhibitor; pH 7.5).
